Experimental data gathered from unrelated publications.
Parts stem from different laboratories: compare values within a part only.

Block 1 — method: protein binding microarray; molecule type: double-stranded DNA, one strand shown; matrix: in vitro; concentration: not given; baseline: not given; reading: higher = stronger binding
Target: Histone acetyltransferase KAT6A, winged helix 2, GST fusion (KAT6A, Homo sapiens, UniProt Q92794, residues 85-181)
Notes: 8-mer, flanks averaged, mean of 2 arrays, mostly near background
Target sequence (chain): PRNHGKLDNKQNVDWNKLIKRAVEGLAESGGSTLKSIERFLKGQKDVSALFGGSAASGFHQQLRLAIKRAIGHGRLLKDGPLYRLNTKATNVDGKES
`ATGAATAC` gave an E-score of -0.143.
`ACCCAAAG` gave an E-score of -0.068.
The E-score of `GTACTCCA` is reported as 0.00549.
`TGAGTACA` has an E-score of -0.0588.
For `CTTCTGGC`, the E-score was -0.0226.
`CCTTAGTA` gave an E-score of -0.153.

Block 2 — method: aptamer microarray, sandwich; molecule type: DNA with 2'F-ANA; matrix: in vitro; concentration: 200 nM; together with: Cy3 exosite-II aptamer, 400 nM; reading: higher = stronger binding; sequence: GGTTGGTGTGGTTGG
Target: Prothrombin, mature alpha-thrombin (F2, Homo sapiens, UniProt P00734)
Notes: whole 15-mer aptamer, many near background
For `2'F-ANA at 2 3 7 8 9 11 13 14 15`, “mean fluorescence intensity” read 387 a.u.
Under “mean fluorescence intensity”, `2'F-ANA at 2 3 5 7 8 11 14` is recorded as 56.9 a.u.
`2'F-ANA at 5 6 7 8 9 10 11 12 13`: “mean fluorescence intensity” 51.3 a.u.
`2'F-ANA at 2 3 6 7 8 10 11 15`: “mean fluorescence intensity” 301 a.u.
`2'F-ANA at 7 10 12 13 14 15`: “mean fluorescence intensity” 119 a.u.
Under “mean fluorescence intensity”, `2'F-ANA at 1 2 3 4 5 6 7 8 9 10 12 13 14` is recorded as 87.3 a.u.

Block 3 — method: RNA Bind-n-Seq; molecule type: RNA; matrix: in vitro; concentration: 365 nM; baseline: no-protein control; reading: higher = stronger binding
Target: RNA binding protein fox-1 homolog 2, RRM domain, GST-SBP tag (RBFOX2, Homo sapiens, UniProt O43251-10, residues 100-194)
Notes: natural RNA segment, single round, ends assumed
For `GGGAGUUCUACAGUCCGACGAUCGUACCGAUAAAAACAAAACCAAAUCCAUAUUAUACAUCAAAACCUUGUGAGACAUUCACUUGCUCUUUUGCCAUAUUUAGAUGUGUCAGUGGAAUCAGAAACCUGUUUUGUGGAAUUCUCGGGUGCCAA`, “RBNS enrichment (R)” read 0.417.
Under “RBNS enrichment (R)”, `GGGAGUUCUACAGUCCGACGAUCAGCGCUGCCUGGAAACUUACCUUCCCACGGCCCAGGACGCAUUUCAUCGAAUGGAAACAUGUUCUUGCAUGUGGAUGUGUGUUUCCCAGGCAGAGGGUCCUGCGCCCCCCUGGAAUUCUCGGGUGCCAA` is recorded as 1.13.
`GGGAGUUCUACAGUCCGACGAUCCUGGGCUAGAGAGUGAGUUAUUGCUCACUCUGAGUUCUGCGCUACUCUGGGGGACUCUGUUUCAAGGGGAAAAAAAGAACAGAGUCUGACUGCUUGGCUACGUACAGUAUUGGAAUUCUCGGGUGCCAA`: “RBNS enrichment (R)” 0.6.
Under “RBNS enrichment (R)”, `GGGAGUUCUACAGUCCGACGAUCUCUUUUCCCAAGUGAAUUCCCUUUUAUUCAUGAGAACAAAAGUACUUAGAUACUAUAAAACCUUAAUUUCCCCAACUUUUAAAAUAAAAUGGAAUAUUUGCUGAAUGAAUUGGAAUUCUCGGGUGCCAA` is recorded as 0.834.
For `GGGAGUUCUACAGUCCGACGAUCUAAUAUGAUGCCACUUUGCAGCUAAAAUAAGCUCAGUGAUACCUCCUUGUUAAAAAAAAAAAAAAAAAAAAAGAAUGCCAGGGGGGAAUUAUCAUGCUAAAUUAUUUUACUGGAAUUCUCGGGUGCCAA`, “RBNS enrichment (R)” read 0.948.
For `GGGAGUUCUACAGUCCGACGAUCAUUGUGCUCUCUGUGGAACUGAAGUUUGAUUUAUUUUUGUACUACACGGCAUGGGUUUGUUGACACUUUAAUUUUGCUAUAAAUGUGUGGAAUCACAAGUUGCUGUGAUAUGGAAUUCUCGGGUGCCAA`, “RBNS enrichment (R)” read 1.63.

Single results of other studies
For `PhoQ, residues 284 288 289 292 302 303 QWGLFV`, the fold induction was 7.35 (PhoP, residues 12 14 15 18 19 LHSVW (Escherichia coli, UniProt P23836); Sort-seq, item: YFP reporter; E. coli; PhoQ-PhoP variant library, together with: 10 µM Mg2+; baseline: high Mg2+ state, higher = stronger signaling).

Repeated from above (block 3):
For `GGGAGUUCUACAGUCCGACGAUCUAAUAUGAUGCCACUUUGCAGCUAAAAUAAGCUCAGUGAUACCUCCUUGUUAAAAAAAAAAAAAAAAAAAAAGAAUGCCAGGGGGGAAUUAUCAUGCUAAAUUAUUUUACUGGAAUUCUCGGGUGCCAA`, “RBNS enrichment (R)” read 0.948.
